Measured values collected from several papers.
Compare with care: the assays were run in different laboratories. Several values in a cell are separate wells, animals, samples, runs or records. ± gives the spread as reported.
Sequence of UniProt P20782 (whole entry, looked up): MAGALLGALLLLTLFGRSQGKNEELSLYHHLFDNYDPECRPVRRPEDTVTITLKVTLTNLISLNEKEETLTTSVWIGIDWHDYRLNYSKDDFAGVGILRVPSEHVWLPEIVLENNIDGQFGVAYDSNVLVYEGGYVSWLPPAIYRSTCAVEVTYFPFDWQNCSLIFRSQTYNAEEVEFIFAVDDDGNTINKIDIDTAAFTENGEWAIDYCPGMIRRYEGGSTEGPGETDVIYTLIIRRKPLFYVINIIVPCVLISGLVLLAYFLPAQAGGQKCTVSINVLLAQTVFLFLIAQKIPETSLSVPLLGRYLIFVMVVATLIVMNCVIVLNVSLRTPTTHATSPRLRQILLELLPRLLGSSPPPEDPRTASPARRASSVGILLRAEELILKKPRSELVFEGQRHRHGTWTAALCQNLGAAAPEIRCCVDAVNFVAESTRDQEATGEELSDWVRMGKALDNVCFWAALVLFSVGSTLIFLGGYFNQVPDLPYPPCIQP
Sequence of UniProt P02716 (whole entry, looked up): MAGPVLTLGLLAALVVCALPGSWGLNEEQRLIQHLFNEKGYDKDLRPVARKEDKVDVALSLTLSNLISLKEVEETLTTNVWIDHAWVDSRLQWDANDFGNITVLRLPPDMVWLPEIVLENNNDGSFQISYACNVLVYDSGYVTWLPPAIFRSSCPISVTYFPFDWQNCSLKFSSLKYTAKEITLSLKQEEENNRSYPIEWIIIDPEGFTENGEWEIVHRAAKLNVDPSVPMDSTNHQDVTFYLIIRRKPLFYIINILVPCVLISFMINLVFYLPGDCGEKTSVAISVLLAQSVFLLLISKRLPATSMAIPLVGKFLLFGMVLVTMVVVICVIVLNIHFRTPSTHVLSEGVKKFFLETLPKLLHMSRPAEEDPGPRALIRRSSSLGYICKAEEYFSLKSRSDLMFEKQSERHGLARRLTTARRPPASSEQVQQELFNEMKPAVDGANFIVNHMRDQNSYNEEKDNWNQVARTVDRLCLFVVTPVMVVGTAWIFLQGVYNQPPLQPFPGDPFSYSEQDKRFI
Sequence of UniProt P04756 (whole entry, looked up): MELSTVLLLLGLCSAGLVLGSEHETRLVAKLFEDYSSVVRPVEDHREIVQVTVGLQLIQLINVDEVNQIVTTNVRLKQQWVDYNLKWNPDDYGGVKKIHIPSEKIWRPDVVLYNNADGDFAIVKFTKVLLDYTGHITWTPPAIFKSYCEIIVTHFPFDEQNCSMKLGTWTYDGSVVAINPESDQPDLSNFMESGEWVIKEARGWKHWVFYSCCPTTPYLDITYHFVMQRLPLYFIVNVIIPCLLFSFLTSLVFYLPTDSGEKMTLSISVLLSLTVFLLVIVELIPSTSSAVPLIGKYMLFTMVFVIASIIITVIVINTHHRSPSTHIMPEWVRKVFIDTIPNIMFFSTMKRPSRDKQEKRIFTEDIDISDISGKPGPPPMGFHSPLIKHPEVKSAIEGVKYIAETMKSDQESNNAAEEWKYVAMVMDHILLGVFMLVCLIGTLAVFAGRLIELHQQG
Sequence of UniProt P0A8V2 (whole entry, looked up): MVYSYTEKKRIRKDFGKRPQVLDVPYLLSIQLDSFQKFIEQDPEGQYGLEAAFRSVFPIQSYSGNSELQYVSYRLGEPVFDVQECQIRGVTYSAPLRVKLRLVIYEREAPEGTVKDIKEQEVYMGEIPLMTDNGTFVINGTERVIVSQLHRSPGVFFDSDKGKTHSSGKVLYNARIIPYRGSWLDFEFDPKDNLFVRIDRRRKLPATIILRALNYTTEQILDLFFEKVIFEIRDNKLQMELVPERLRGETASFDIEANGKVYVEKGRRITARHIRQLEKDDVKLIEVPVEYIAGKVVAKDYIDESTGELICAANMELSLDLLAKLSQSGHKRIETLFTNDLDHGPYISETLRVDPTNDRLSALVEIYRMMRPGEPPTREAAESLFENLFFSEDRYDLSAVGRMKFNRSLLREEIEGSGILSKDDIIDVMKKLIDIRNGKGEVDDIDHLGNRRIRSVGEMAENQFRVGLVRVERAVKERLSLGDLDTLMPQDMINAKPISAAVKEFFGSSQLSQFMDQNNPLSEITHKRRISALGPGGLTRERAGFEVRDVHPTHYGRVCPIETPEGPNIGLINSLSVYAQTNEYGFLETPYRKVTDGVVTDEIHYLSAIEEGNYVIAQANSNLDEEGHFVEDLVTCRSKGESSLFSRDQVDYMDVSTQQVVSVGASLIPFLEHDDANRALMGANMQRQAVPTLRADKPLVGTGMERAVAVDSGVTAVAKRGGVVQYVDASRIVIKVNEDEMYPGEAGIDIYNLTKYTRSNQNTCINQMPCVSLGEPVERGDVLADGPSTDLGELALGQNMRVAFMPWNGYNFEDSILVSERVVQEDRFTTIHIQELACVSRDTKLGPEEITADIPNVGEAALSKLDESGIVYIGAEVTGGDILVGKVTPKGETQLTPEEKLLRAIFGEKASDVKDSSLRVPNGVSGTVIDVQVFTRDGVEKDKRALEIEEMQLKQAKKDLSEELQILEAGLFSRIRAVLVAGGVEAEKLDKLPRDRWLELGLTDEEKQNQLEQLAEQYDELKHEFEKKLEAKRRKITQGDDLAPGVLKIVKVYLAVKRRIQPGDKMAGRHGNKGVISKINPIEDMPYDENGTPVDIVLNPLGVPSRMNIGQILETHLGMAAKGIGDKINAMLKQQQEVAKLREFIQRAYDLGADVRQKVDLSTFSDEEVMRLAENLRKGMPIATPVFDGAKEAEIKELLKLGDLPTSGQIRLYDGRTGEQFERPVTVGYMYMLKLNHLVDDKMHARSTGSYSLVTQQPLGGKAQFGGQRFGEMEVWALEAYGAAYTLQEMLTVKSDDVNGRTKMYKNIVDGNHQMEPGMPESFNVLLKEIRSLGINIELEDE
Sequence of UniProt P0A8T7 (whole entry, looked up): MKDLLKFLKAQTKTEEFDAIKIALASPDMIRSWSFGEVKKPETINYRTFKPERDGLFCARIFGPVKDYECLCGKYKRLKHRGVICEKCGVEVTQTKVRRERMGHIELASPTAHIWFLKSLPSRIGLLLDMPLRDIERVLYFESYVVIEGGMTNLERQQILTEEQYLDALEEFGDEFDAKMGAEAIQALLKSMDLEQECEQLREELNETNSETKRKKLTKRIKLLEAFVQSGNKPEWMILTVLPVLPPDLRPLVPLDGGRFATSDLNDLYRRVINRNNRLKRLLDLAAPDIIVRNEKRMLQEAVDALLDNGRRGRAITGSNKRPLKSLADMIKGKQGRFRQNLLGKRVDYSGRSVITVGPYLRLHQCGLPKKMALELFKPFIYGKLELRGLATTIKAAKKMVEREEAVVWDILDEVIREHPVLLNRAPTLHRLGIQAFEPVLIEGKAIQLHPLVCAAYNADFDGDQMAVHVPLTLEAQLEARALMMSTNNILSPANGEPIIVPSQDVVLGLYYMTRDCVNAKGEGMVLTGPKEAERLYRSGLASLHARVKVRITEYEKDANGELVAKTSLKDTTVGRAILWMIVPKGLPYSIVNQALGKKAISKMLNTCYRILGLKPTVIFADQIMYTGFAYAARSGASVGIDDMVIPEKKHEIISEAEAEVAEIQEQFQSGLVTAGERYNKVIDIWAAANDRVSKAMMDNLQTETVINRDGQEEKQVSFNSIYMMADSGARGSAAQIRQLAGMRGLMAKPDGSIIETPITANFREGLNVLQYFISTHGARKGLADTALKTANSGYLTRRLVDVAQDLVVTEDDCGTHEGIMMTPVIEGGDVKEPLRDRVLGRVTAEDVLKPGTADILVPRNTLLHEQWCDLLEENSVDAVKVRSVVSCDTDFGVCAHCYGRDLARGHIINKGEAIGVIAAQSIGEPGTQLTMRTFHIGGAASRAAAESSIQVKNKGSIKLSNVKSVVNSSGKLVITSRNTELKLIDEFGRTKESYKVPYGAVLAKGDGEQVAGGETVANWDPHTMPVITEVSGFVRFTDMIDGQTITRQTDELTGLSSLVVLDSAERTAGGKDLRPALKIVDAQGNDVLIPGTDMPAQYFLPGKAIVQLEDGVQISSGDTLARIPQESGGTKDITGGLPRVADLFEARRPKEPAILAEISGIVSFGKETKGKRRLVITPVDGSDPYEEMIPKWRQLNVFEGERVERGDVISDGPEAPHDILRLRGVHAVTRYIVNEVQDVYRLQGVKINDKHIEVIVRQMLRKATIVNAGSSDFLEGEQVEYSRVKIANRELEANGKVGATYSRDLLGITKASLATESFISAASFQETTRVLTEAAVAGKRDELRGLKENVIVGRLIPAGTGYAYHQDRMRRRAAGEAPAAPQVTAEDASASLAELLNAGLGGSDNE
Sequence of UniProt P22459 (whole entry, looked up): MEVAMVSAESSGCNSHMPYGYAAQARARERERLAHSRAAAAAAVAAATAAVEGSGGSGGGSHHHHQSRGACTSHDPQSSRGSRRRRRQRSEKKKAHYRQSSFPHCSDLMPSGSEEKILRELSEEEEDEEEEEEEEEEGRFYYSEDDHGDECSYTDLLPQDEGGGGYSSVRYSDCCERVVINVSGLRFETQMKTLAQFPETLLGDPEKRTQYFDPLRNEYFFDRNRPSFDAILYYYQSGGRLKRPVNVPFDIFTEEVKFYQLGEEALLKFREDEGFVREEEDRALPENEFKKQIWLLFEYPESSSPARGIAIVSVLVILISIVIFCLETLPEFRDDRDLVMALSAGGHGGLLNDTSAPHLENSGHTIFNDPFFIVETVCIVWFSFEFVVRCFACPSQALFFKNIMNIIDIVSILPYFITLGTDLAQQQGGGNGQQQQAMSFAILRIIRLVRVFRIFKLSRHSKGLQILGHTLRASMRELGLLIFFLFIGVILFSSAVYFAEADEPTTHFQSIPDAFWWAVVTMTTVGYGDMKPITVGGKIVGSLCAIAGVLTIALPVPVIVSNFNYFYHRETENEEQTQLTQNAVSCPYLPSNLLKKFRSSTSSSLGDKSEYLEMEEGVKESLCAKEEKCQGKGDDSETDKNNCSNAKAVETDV

Substance	tested on	test	system	setting	scale	measurement	value
CC[C@H](C)[C@H](NC(=O)[C@H](C)NC(=O)[C@H](CO)NC(=O)[C@H](CC(=O)O)NC(=O)[C@H](CO)NC(=O)[C@H](Cc1ccccc1)NC(=O)[C@H](CS)NC(=O)[C@H](CC(=O)O)NC(=O)[C@H](Cc1ccccc1)NC(=O)[C@H](Cc1ccc(O)cc1)NC(=O)[C@H](Cc1ccc(O)cc1)NC(=O)[C@H](CC(C)C)NC(=O)[C@H](Cc1c[nH]cn1)NC(=O)[C@@H](NC(=O)[C@H](CC(C)C)NC(=O)[C@H](CCC(N)=O)NC(=O)[C@H](CC(=O)O)NC(=O)[C@H](C)NC(=O)[C@H](CC(C)C)NC(=O)[C@@H](N)CCC(=O)O)[C@@H](C)CC)C(=O)N[C@@H](CCCNC(=N)N)C(=O)N[C@@H](CCCCN)C(=O)N[C@@H](C)C(=O)N[C@@H](CC(C)C)C(=O)N[C@@H](CC(C)C)C(=O)NCC(=O)N[C@@H](Cc1c[nH]cn1)C(=O)N[C@H](C(=O)N[C@H](C(=O)N[C@@H](CO)C(=O)N1CCC[C@H]1C(=O)N[C@@H](CCCNC(=N)N)C(=O)N[C@@H](CS)C(=O)N[C@@H](CCC(=O)O)C(=O)N[C@@H](Cc1ccc(O)cc1)C(=O)N[C@@H](CCC(N)=O)C(=O)N[C@@H](C)C(=O)NCC(=O)N[C@@H](Cc1c[nH]cn1)C(=O)N[C@@H](CC(N)=O)C(=O)N[C@@H](CCCCN)C(=O)N[C@H](C(=O)O)C(C)C)C(C)C)[C@@H](C)CC	zinc	binding, competitive PAR titration	–	pH 7.4	–	Kd	0.054 ± 0.01 µM
CC(C)C[C@H](NC(=O)[C@H](Cc1ccccc1)NC(=O)[C@@H]1CCCN1C(=O)[C@H](CCCNC(=N)N)NC(=O)[C@H](CCC(=O)O)NC(=O)[C@@H]1CCCN1C(=O)[C@H](CO)NC(=O)[C@@H](N)CCC(=O)O)C(=O)O	Epithelial sodium channel subunit beta (Homo sapiens, UniProt P51168)	isothermal titration calorimetry	–	recombinant, His and GST tag	–	Kd	0.01 to 0.1 µM
CNC(=O)[C@@H](NC(=O)[C@H](CC(C)C)[C@H](O)C(=O)NO)C(C)(C)C	human fibrinogen	SDS-PAGE	Daboia russelii	concentration not given, unit not given, together with: MH venom	relative to: untreated fibrinogen	remaining fibrinogen Aα chain	0.236
O=C(O)CC(O)(CC(=O)O)C(=O)O	UDP-galactopyranose mutase (Corynebacterium diphtheriae, UniProt Q6NER4)	binding	–	–	–	Kd	~8700 µM
acetyl pepstatin	Gag-Pol polyprotein, protease (Human immunodeficiency virus type 1 group M subtype B, UniProt P03367)	DSC extrapolation	–	25 °C	–	Kd	2.96 µM
CC[C@H](C)[C@H](NC(=O)[C@H](CC(C)C)NC(=O)[C@H](Cc1c[nH]c2ccccc12)NC(=O)[C@H](CCC(N)=O)NC(=O)[C@@H](NC(=O)[C@H](Cc1ccccc1)NC(=O)[C@H](C)NC(=O)[C@H](CCCCNC(=O)COCCOCCNC(=O)COCCOCCNC(=O)CC[C@H](NC(=O)CCCCCCCCCCCCCCCCCCC(=O)O)C(=O)O)NC(=O)[C@H](CCC(N)=O)NC(=O)[C@H](C)NC(=O)[C@@H](NC(=O)[C@H](CCCCN)NC(=O)[C@H](CC(=O)O)NC(=O)[C@H](CC(C)C)NC(=O)C(C)(C)NC(=O)[C@@H](NC(=O)[C@H](CO)NC(=O)[C@H](Cc1ccc(O)cc1)NC(=O)[C@H](CC(=O)O)NC(=O)[C@H](CO)NC(=O)[C@@H](NC(=O)[C@H](Cc1ccccc1)NC(=O)[C@@H](NC(=O)CNC(=O)[C@H](CCC(=O)O)NC(=O)C(C)(C)NC(=O)[C@@H](N)Cc1ccc(O)cc1)[C@@H](C)O)[C@@H](C)O)[C@@H](C)CC)[C@@H](C)CC)C(C)C)C(=O)N[C@@H](C)C(=O)NCC(=O)NCC(=O)N1CCC[C@H]1C(=O)N[C@@H](CO)C(=O)N[C@@H](CO)C(=O)NCC(=O)N[C@@H](C)C(=O)N1CCC[C@H]1C(=O)N1CCC[C@H]1C(=O)N1CCC[C@H]1C(=O)N[C@@H](CO)C(N)=O	–	measured: anti-drug antibodies	healthy human subjects	1.5 mg multiple ascending, titer ≥1:20	–	subjects with treatment-induced ADA	0%
AaH II scorpion toxin	rat Nav1.2a/Kv2.1 VSD IV chimera	two-electrode voltage clamp	Xenopus oocytes	22 °C	–	Kd	1.01 ± 0.092 µM
Cn1cnc(Cn2c(=O)[nH]/c(=N\c3cc4cn(C)nc4cc3Cl)n(Cc3cc(F)c(F)cc3F)c2=O)n1	–	–	human	oral, 375 mg	–	patients with mild TEAE	9.4%
NCCc1c(SSc2[nH]c3cc(Br)ccc3c2CCN)[nH]c2cc(Br)ccc12	KCNA4 (Homo sapiens, UniProt P22459)	activation time constant, whole-cell patch clamp	CHO-K1	–	–	Kd	2.9 ± 1 µM
CC(=O)O[C@@H]1[C@H](N)[C@@H](OP(=O)(O)O)[C@@]2(C(=O)O)CS[C@@](O)(C(N)=O)[C@@H]1O2	DNA-directed RNA polymerase subunit beta' / DNA-directed RNA polymerase subunit beta (rpoC/rpoB, Escherichia coli, UniProt P0A8T7+P0A8V2)	binding to elongation complex, 6-MI fluorescence titration	wild-type RNAP	riboside RNA 3′-end Cytosine	–	Kd	0.11 ± 0.04 µM
COc1cc2c3cc1Oc1cc(ccc1O)C[C@@H]1c4c(cc(OC)c(O)c4Oc4ccc(cc4)C[C@@H]3N(C)CC2)CC[N+]1(C)C	Chrnd/Chrna1/Chrne (Mus musculus, UniProt P02716+P04756+P20782)	fit of effect decay kinetics	mouse diaphragm	AChE inhibited	–	Kd	0.04 to 0.1 µM and 0.053 µM
Nc1ncnc2c([C@@H]3N[C@H](CO)[C@@H](O)[C@H]3O)c[nH]c12	Yellow fever virus	viral replication	Vero 76, 17D	296 µM	–	inhibition	90.5%

For quick reference, copied from above:
Substance	tested on	test	system	setting	scale	measurement	value
CC[C@H](C)[C@H](NC(=O)[C@H](CC(C)C)NC(=O)[C@H](Cc1c[nH]c2ccccc12)NC(=O)[C@H](CCC(N)=O)NC(=O)[C@@H](NC(=O)[C@H](Cc1ccccc1)NC(=O)[C@H](C)NC(=O)[C@H](CCCCNC(=O)COCCOCCNC(=O)COCCOCCNC(=O)CC[C@H](NC(=O)CCCCCCCCCCCCCCCCCCC(=O)O)C(=O)O)NC(=O)[C@H](CCC(N)=O)NC(=O)[C@H](C)NC(=O)[C@@H](NC(=O)[C@H](CCCCN)NC(=O)[C@H](CC(=O)O)NC(=O)[C@H](CC(C)C)NC(=O)C(C)(C)NC(=O)[C@@H](NC(=O)[C@H](CO)NC(=O)[C@H](Cc1ccc(O)cc1)NC(=O)[C@H](CC(=O)O)NC(=O)[C@H](CO)NC(=O)[C@@H](NC(=O)[C@H](Cc1ccccc1)NC(=O)[C@@H](NC(=O)CNC(=O)[C@H](CCC(=O)O)NC(=O)C(C)(C)NC(=O)[C@@H](N)Cc1ccc(O)cc1)[C@@H](C)O)[C@@H](C)O)[C@@H](C)CC)[C@@H](C)CC)C(C)C)C(=O)N[C@@H](C)C(=O)NCC(=O)NCC(=O)N1CCC[C@H]1C(=O)N[C@@H](CO)C(=O)N[C@@H](CO)C(=O)NCC(=O)N[C@@H](C)C(=O)N1CCC[C@H]1C(=O)N1CCC[C@H]1C(=O)N1CCC[C@H]1C(=O)N[C@@H](CO)C(N)=O	–	measured: anti-drug antibodies	healthy human subjects	1.5 mg multiple ascending, titer ≥1:20	–	subjects with treatment-induced ADA	0%
